Assay results collected from several papers.
Protocols differ between the studies behind these lines. Numbers after ± are the reported error.

CCN(CC)CCSC(=S)N1CCN(C(=O)/C=C/c2coc3cc(F)ccc3c2=O)CC1
inactivation effect (tomato spotted wilt virus; viral infection, half-leaf method; Nicotiana glutinosa; 500 µg/mL): 57.5 ± 6.7%

NNc1n[nH]c(=O)c2ccccc12
IC50 (Leishmania braziliensis; parasite growth, MTT; promastigote): > 25000 nM

CCCCCCCCCC1CC2CCC3CC(CCCCCCCCC)NC(=N1)N23 (stereo not drawn)
IC50 (Candida glabrata; fungal growth; ATCC 90030): 2180 nM

CNC(=O)CNc1cnc2ccc(-c3ccc(OC)c(OC)c3)cc2n1
IC50 (Cryptosporidium parvum; parasite growth, imaging; HCT-8; intracellular): 8340 nM

Cc1cc(N2CC[C@@](C#N)(C3(C)CC3)C2=O)cc(C(=O)NCc2cc(F)cc(-c3cnn(C)c3)c2)n1
IC50 (Plasmodium falciparum; parasite growth, ex vivo drug susceptibility; Brazilian clinical field isolates): 9 nM

CC1=C(C(=O)OC2CCCCCC2)C(c2ccc([N+](=O)[O-])cc2)C2=C(CC(C)(C)CC2=O)N1 (stereo not drawn)
IC50 (Strongylocentrotus purpuratus; Ca2+ release, antagonist; sea urchin egg homogenate; added: cADPR 300 nM): 61 ± 14 nM

O=[N+]([O-])/C=C/c1ccco1
IC50 (Leishmania braziliensis; parasite growth; 72 h, promastigote): 1400 nM

CCN(CC)CC#CCNc1ccnc2cc(Cl)ccc12
IC50 (Plasmodium falciparum; parasite growth, SYBR Green; 3D7; blood stage): 25 nM

O=[N+]([O-])/C=C/c1ccc(Br)o1
IC50 (Leishmania braziliensis; parasite growth; 72 h, promastigote): 800 nM

N=C(NO)NN=Cc1cnc2cc(C(F)(F)F)ccc2c1O
IC50 (Human mastadenovirus C; viral replication, plaque reduction; A549, Ad5 McEwen; 6 days): inactive

CCCCCC1CC2CCCC3CC(C)N=C(N1)N32 (stereo not drawn)
IC50 (Candida glabrata; fungal growth; ATCC 90030): 19300 nM

COC1C=COC2(C)Oc3c(C)c(O)c4c(c3C2=O)C2=NC3(CCN(CC(C)C)CC3)NC2=C(NC(=O)C(C)=CC=CC(C)C(O)C(C)C(O)C(C)C(OC(=O)c2cccnc2)C1C)C4=O (stereo not drawn)
IC50 (Mycobacteroides abscessus; intracellular bacterial growth; THP-1 derived macrophages, ATCC 19977): 30 nM

O=C(CCCN1C(=O)c2cccc3cccc(c23)C1=O)NO
IC50 (Cryptosporidium parvum; parasite growth; HCT-8; 48 h, intracellular): 2100 nM

CNC(=O)c1ccc(-c2cnn3ccc(C(=O)N(c4ccc(C#N)cn4)C(C)(C)C)cc23)cc1
IC50 (Cryptosporidium parvum; parasite growth, imaging; HCT-8; intracellular): 1030 nM

COC1C=COC2(C)Oc3c(C)c(O)c4c(c3C2=O)C2=NC3(CCN(CC(C)C)CC3)NC2=C(NC(=O)C(C)=CC=CC(C)C(O)C(C)C(O)C(C)C(OC(=O)Nc2cscn2)C1C)C4=O (stereo not drawn)
IC50 (Mycobacteroides abscessus; ATCC 19977; CAMHB): 13 nM

CNC(=O)c1ccc(-c2cnc3cnc(C(=O)N(C)c4ccc(Cl)cc4)cn23)cc1
IC50 (Cryptosporidium parvum; parasite growth, imaging; HCT-8; intracellular): 54 nM

CN(C)CCSC(=S)N1CCN(C(=O)/C=C/c2coc3ccc(F)cc3c2=O)CC1
inactivation effect (tomato spotted wilt virus; viral infection, half-leaf method; Nicotiana glutinosa; 500 µg/mL): 69.5 ± 5.6%

COC1C=COC2(C)Oc3c(C)c(O)c4c(c3C2=O)C2=NC3(CCN(CC(C)C)CC3)NC2=C(NC(=O)C(C)=CC=CC(C)C(O)C(C)C(O)C(C)C(OC(=O)Nc2cccnn2)C1C)C4=O (stereo not drawn)
IC50 (Mycobacteroides abscessus; ATCC 19977; 1:1 CAMHB:human serum): 50 nM

Excerpt of the above:
CNC(=O)c1ccc(-c2cnc3cnc(C(=O)N(C)c4ccc(Cl)cc4)cn23)cc1
IC50 (Cryptosporidium parvum; parasite growth, imaging; HCT-8; intracellular): 54 nM
